Experimental data pooled from the literature.
A part holds a random share of what one study measured. Values joined by “and” are separate records of one study, mostly repeats; a detail may differ.
Sequence of UniProt P41143 (whole entry, looked up): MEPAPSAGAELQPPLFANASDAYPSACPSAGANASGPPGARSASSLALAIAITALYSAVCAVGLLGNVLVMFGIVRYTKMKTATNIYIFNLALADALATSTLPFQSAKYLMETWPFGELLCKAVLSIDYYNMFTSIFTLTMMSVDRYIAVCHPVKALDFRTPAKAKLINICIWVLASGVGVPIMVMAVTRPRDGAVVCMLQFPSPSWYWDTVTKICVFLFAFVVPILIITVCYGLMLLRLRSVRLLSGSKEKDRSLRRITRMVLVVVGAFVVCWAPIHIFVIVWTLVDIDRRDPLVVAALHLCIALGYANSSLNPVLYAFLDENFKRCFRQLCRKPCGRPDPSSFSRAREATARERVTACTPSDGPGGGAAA

Block 1 — action: degrader; technique: HiBiT; cell line: HEK293; measurement: remaining protein
SMILES: Cn1cc(-c2cccc(CN3CCC4(CC3)COc3c4ccc4c3CN([C@@H]3CCC(=O)NC3=O)C4=O)c2)cn1
CSNK1A1: Casein kinase I isoform alpha (CSNK1A1, Homo sapiens, UniProt P48729)
Sequence of UniProt P48729 (whole entry, looked up): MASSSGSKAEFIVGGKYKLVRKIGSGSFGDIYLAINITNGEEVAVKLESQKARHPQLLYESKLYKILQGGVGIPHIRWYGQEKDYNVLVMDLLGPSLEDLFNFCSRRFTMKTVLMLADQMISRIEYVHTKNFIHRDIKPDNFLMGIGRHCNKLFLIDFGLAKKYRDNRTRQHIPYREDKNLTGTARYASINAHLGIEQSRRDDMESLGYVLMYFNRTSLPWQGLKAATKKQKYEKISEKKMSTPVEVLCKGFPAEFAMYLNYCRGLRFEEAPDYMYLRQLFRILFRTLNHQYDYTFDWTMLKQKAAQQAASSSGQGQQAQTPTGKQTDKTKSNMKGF
DNA-binding protein Ikaros: DNA-binding protein Ikaros (Homo sapiens, UniProt Q13422)
Sequence of UniProt Q13422 (whole entry, looked up): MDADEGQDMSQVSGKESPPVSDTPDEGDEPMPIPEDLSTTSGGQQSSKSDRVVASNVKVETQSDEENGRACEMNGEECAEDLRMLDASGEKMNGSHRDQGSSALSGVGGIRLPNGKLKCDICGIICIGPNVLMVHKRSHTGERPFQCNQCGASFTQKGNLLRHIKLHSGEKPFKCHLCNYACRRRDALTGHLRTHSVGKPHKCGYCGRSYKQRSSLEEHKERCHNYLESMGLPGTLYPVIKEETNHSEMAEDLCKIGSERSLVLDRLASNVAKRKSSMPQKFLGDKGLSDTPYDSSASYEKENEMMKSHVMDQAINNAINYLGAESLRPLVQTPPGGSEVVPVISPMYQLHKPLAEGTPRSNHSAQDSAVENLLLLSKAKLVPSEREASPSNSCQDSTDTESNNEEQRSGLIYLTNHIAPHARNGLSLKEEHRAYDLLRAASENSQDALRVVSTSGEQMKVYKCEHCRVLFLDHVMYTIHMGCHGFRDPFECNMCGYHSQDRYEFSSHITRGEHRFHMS
GSPT1: Eukaryotic peptide chain release factor GTP-binding subunit ERF3A (GSPT1, Homo sapiens, UniProt P15170)
Sequence of UniProt P15170 (whole entry, looked up): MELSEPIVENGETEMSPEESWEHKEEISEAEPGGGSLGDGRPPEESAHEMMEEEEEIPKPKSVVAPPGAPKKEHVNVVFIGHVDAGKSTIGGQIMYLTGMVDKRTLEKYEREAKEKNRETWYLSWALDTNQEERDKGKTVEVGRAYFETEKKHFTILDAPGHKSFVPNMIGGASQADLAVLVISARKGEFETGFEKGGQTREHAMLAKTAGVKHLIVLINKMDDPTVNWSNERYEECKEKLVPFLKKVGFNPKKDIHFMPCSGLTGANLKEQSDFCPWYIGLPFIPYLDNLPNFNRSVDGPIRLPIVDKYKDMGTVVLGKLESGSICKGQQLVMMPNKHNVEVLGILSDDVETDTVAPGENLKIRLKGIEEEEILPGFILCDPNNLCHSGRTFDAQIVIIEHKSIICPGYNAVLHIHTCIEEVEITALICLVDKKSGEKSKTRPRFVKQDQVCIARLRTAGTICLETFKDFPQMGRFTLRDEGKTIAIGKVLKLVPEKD
CSNK1A1; 4.572 nM: 103% and 99.5%
CSNK1A1; 1.524 nM: 97% and 93.1%
DNA-binding protein Ikaros; 13.72 nM: 94.6% and 101%
GSPT1; 0.1694 nM: 106% and 101%
CSNK1A1; 10000 nM: 101% and 97.9%
CSNK1A1; 0.1694 nM: 104% and 108%
GSPT1; 370.37 nM: 105% and 90%
DNA-binding protein Ikaros; 4.572 nM: 92.1% and 97.9%

Other studies, line by line
PKMYT1: Membrane-associated tyrosine- and threonine-specific cdc2-inhibitory kinase (PKMYT1, Homo sapiens, UniProt Q99640)
Sequence of UniProt Q99640 (whole entry, looked up): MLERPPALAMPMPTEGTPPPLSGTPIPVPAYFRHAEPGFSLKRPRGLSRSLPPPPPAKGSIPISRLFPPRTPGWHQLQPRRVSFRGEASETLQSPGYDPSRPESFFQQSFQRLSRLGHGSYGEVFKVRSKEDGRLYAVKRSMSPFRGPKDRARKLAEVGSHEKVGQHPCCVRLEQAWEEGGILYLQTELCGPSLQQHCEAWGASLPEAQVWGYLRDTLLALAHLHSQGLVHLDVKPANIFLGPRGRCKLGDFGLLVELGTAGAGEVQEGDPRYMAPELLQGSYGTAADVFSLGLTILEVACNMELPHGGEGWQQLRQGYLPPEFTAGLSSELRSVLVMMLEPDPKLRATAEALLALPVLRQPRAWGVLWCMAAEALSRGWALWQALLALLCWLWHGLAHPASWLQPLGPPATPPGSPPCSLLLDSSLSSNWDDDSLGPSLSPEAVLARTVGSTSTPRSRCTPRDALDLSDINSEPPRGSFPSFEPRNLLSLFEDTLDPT
Cc1cc(-c2cnc(N)c3c(-c4ccc5scnc5c4)csc23)n(C)n1  viability (CCK-8; L929, mouse; 12.5 µM, MEM with 10% FBS, added: zVAD): 58.9% and 62% and 56% and 61.6% and 59.6%
COc1cc(C(=O)OCCCN2CCCN(CCCOC(=O)c3cc(OC)c(OC)c(OCc4ccc([N+](=O)[O-])cc4)c3)CC2)cc(OC)c1OC  concentration (CD-1 mice, male, brain; subcutaneous, 30 mg/kg, 1.5 h): 309 ng/mL
C=CCN1C(=O)C(O)(C(=O)O)Oc2cc(F)ccc21 (stereo not shown)  inhibition (Arabidopsis thaliana; root length; Col-0; 50.0 µg/mL, 7 days, seed germination, dark): 28.5%
O=[N+]([O-])c1ccc(C2=NOC3(NC(c4ccccc4)=NO3)N2c2ccccc2)cc1 (stereo not shown)  resistance index (Plasmodium falciparum; Dd2; relative to: IC50 Dd2 over 3D7): < 5 and 4.2
N=C(N)NCCCN1CC[C@]23c4c5ccc(O)c4O[C@H]2c2[nH]c4ccccc4c2C[C@@]3(O)[C@H]1C5  EC50 (Delta-type opioid receptor, with Gi1 (OPRD1, Homo sapiens, UniProt P41143); agonist): 1.82 nM
Cc1ccc(O)c(C)c1-c1cnc2[nH]c(-c3cnc(N4CCC(CN5CCN(c6ccc(N7CCC(=O)NC7=O)cc6F)CC5)CC4)nc3)cc2c1C#N  inhibition (PKMYT1; binding, HTRF; 4.12 nM): 49% and 50.4%
N=C(N)NCCCCCCN1CCC23c4c5ccc(O)c4OC2c2nc4ccccc4cc2CC3(O)C1C5 (stereo not shown)  seizure score (modified Racine scale; C57BL/6J mice, male; intracerebroventricular, 100 nmol, 30 min; direction not given): 0
Cc1ccc(O)c(C)c1-c1cnc2[nH]c(-c3cnc(N4CCC(CN5CCN(c6ccc(C(=O)NC7CCC(=O)NC7=O)c(F)c6)CC5)CC4)nc3)cc2c1C#N (racemic)  inhibition (PKMYT1; binding, HTRF; 333.33 nM): 98.2% and 102%
